Results of several laboratories.
Each line is one published result; not all experiments were run side by side. “And” joins repeats or separate records; there may be more than shown. Numbers after ± are the reported error.
Method: steady-state kinetics
B1: enzyme (Treponema denticola, UniProt Q73LY9); chain QTNGTMPKRKFVIAFHASVNTDKTGKNLIKELPDLQKRGINTLFLEIGYNYQWKSDPKLYNKYVLSETVAREIAAECRRLSIDLIPEINCLGHQSWENETFALLKAYPELDETPGLYPSNKDIYCRSLCSSNEKVYTILFGLIDEITEVFSVKKIHVGLDEVFLIGEDACPLCRGKDKAELFAGAVNRLYDHCVKKRGFTMYMWGDRLIDSEDEDSGYKGEYESSCNGTYPAVDLIPKDIIICDWHYDELERYGSIPYFLNKGFRVLPTSFKGIKAVNALIDYSLLYKDNPAMLGHMYTAWDNFTNKNLSRYKPMVKTIDKLKAGN
B2: enzyme Y27L (Thermoplasma volcanium, UniProt Q978S7); chain MAFHGLVKYSDITVEGLPKIQYHGFIGNNRTAMLVAMNGYIDWGCLPNFNSNAVFSSILDKNKGGYFAIFPSDTTDVYVDQYYKEMTNVLVTEFVKNGKIILRLTDFMPDSEYGKISFPEVHRFVESFSEPIDITIDFKPTFNYGQDKPIIEKDQHGFIFTTDKESIGISSEFPLRKNSDRIFGNVKMEPRSSSWIIALYGIHHLFRTTDYKSYLRLQETTDYWRKWASSSSYAGAYHSMVMRSALALKVLFYEPTGLMVAAPTASLPEAIGGERNWDYRFTWIRDTAYVIEALSSIGYKYEATEFLYDMMDMITRDNRIRTIYSIDDSNDLEERIIDYEGYRGSRPVRIGNKAVDQLQIDQYGSIVRAIHSMAKAGGIVNSYLWDFVEQVMAKIEYLWKYPDSSIWEFRTEPKQYVYSKVMSWAAFDSAISMAKDLGLSAPIKQWKSIQDEIKKEVLEKGFDTDTNSFVQYYGSKNIDAALLRLPILGFIPANDEKFLGTLSRIEKELMVDGYLFKRYREDDGLKGDEGSFLMLTFWYIEDLILMKRLKKAREVLESVLEKANHLGLYSEEIDEKSGDFLGNFPQALSHLGVIRVAPKLEEALLKRTSKINS
B3: CDA (Homo sapiens, UniProt P32320); chain MAQKRPACTLKPECVQQLLVCSQEAKKSAYCPYSHFPVGAALLTQEGRIFKGCNIENACYPLGICAERTAIQKAVSEGYKDFRAIAIASDMQDDFISPCGACRQVMREFGTNWPVYMTKPDGTYIVMTVQELLPSSFGPEDLQKTQ
B4: enzyme (Lactiplantibacillus plantarum, UniProt Q06115); chain CTAITYQSYNNYFGRNFDYEISYNEMVTITPRKYPLVFRKVENLDHHYAIIGITADVESYPLYYDAMNEKGLCIAGLNFAGYADYKKYDADKVNITPFELIPWLLGQFSSVREVKKNIQKLNLVNINFSEQLPLSPLHWLVADKQESIVIESVKEGLKIYDNPVGVLTNNPNFDYQLFNLNNYRALSNSTPQNSFSEKVDLDSYSRGMGGLGLPGDLSSMSRFVRAAFTKLNSLSMQTESGSVSQFFHILGSVEQQKGLCEVTDGKYEYTIYSSCCDMDKGVYYYRTYDNSQINSVSLNHEHLDTTELISYPLRSEAQYYAVN
B5: enzyme (Arabidopsis thaliana, UniProt Q9C969); chain GSFGMLSRRTLGTDMPVMAQIRSLMAELTNPMSLAQGVVHWQPPQKALEKVKELVWDPIISSYGPDEGLPELRQALLKKLREENKLTNSQVMVTAGANQAFVNLVITLCDAGDSVVMFEPYYFNSYMAFQMTGVTNIIVGPGQSDTLYPDADWLERTLSESKPTPKVVTVVNPGNPSGTYVPEPLLKRIAQICKDAGCWLIVDNTYEYFMYDGLKHCCVEGDHIVNVFSFSKTYGMMGWRLGYIAYSERLDGFATELVKIQDNIPICAAIISQRLAVYALEEGSGWITERVKSLVKNRDIVKEALEPLGKENVKGGEGAIYLWAKLPEGHRDDFKVVRWLAHRHGVVVIPGCASGSPGYLRVSFGGLQEVEMRAAAARLRKGIEELLHHGMVE
B6: enzyme C93G/Y157F (Mus musculus, UniProt P60334); chain MERTELLKPRTLADLIRILHELFAGDEVNVEEVQAVLEAYESNPAEWALYAKFDQYRYTRNLVDQGNGKFNLMILCWGEGHGSSIHDHTDSHGFLKLLQGNLKETLFDWPDKKSNEMIKKSERTLRENQCAYINDSIGLHRVENVSHTEPAVSLHLFSPPFDTCHAFDQRTGHKNKVTMTFHSKFGIRTPFTTSGSLENN
B7: enzyme C458A (Methanosarcina mazei, UniProt Q8PVB1); chain MSEQRSVPLREHLLALKPCRHGGLIQETSETYGIPENEILDFSANFNPLGSPFDYPENGLNFEDIIKKSCGKLLEYPDNRYVEFREAAARFVGLGVTPQSIVPGNGSTEIVRLVVESVIEKGDKVLLPWPTFGEYEMQCRITGAEPVCPSQEEVNTLPDEVLEEAKILFICNPNNPTGKLRTREELKVLAERCREHKTLLYVDEAFIELSDPSQSVADLPAENNYVFVMRSLTKDFAIPGIRMGFGIAPPAMADILNTARLSWNLGAIANNTGIALLNIEGGIDSPYLKKAREMILKEGETLKAKIDRIRGFEAGEVNVNFILVDVSKFMLNSSELTARLAARGVLVRDCVSFHGLGKNYIRVAVRTEKENDRLIAAIGDVITEWGREQAKNELQHVIEKASEEGIGGRKTCEYYPCHFEGQNCTFCFCPFYPCENEKTGGKWIQSSRGGRVWSCVDAHLVHKKEIAQKILDCLMHEGDTDELVKVAWKEVMEPIL
B8: PYCR2 R119C (Homo sapiens, UniProt Q96C36); chain MSVGFIGAGQLAYALARGFTAAGILSAHKIIASSPEMNLPTVSALRKMGVNLTRSNKETVKHSDVLFLAVKPHIIPFILDEIGADVQARHIVVSCAAGVTISSVEKKLMAFQPAPKVICCMTNTPVVVQEGATVYATGTHALVEDGQLLEQLMSSVGFCTEVEEDLIDAVTGLSGSGPAYAFMALDALADGGVKMGLPRRLAIQLGAQALLGAAKMLLDSEQHPCQLKDNVCSPGGATIHALHFLESGGFRSLLINAVEASCIRTRELQSMADQEKISPAALKKTLLDRVKLESPTVSTLTPSSPGKLLTRSLALGGKKD
B9: enzyme (UniProt Q83XK4); chain MATRIAILGAGPSGMAQLRAFQSAQEKGAEIPELVCFEKQADWGGQWNYTWRTGLDENGEPVHSSMYRYLWSNGPKECLEFADYTFDEHFGKPIASYPPREVLWDYIKGRVEKAGVRKYIRFNTAVRHVEFNEDSQTFTVTVQDHTTDTIYSEEFDYVVCCTGHFSTPYVPEFEGFEKFGGRILHAHDFRDALEFKDKTVLLVGSSYSAEDIGSQCYKYGAKKLISCYRTAPMGYKWPENWDERPNLVRVDTENAYFADGSSEKVDAIILCTGYIHHFPFLNDDLRLVTNNRLWPLNLYKGVVWEDNPKFFYIGMQDQWYSFNMFDAQAWYARDVIMGRLPLPSKEEMKADSMAWREKELTLVTAEEMYTYQGDYIQNLIDMTDYPSFDIPATNKTFLEWKHHKKENIMTFRDHSYRSLMTGTMAPKHHTPWIDALDDSLEAYLSDKSEIPVAKEA
B10: enzyme (Thermotoga maritima, UniProt Q9WXS3); chain MRLNRETIKDRAAWEKIGVRPPYFDLDEVEKNTKEQPKWVHFGGGNIFRGFVAAVLQNLLEEGKEDTGINVIELFDYEVIDKVYKPYDNLSIAVTIKPDGDFEKRIIASVMEALKGDPSHPDWERAKEIFRNPSLQLASLTITEKGYNIEDQAGNLFPQVMEDMKNGPVSPQTSMGKVAALLYERFKAGRLPIALLSLDNFSRNGEKLYSSVKRISEEWVKSGLVEKDFIDYLEKDVAFPWSMIDKIVPGPSEFIKEHLEKLGIEGMEIFVTSKRTHIAPFVNMEWAQYLVIEDSFPNGRPKLEGADRNVFLTDRETVEKAERMKVTTCLNPLHTALAIFGCLLGYKKIADEMKDPLLKKLVEGVGEEGIKVVVDPGIINPREFLNEVINIRLPNPYLPDTPQRIATDTSQKMPIRFGETIKAYHERPDLDPRNLKYIPLVIAGWCRYLMGIDDEGREMQLSPDPLLENLRSYVSKIKFGDPESTDDHLKPILSSQQLFRVNLYEVGLGEKIEELFKKMITGPRAVRKTLEEVVGREDG
Sequence of UniProt P32664 (whole entry, looked up): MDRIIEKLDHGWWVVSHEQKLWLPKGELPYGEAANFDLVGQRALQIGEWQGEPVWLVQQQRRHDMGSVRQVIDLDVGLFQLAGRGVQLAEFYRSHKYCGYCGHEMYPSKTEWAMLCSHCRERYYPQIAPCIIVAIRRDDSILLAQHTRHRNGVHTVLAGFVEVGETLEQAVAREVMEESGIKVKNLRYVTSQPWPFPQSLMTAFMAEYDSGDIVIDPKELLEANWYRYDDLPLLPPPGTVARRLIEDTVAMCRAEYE

Substance = B1 (enzyme); substrate = CC(=O)N[C@H]1[C@H](Oc2ccc([N+](=O)[O-])cc2)O[C@H](CO)[C@@H](O)[C@@H]1O[C@@H]1O[C@H](CO)[C@H](O)[C@H](O)[C@H]1O; setting = pH 6, 40 °C; kcat/Km = 100 M⁻¹ s⁻¹
Substance = B2 (enzyme Y27L); substrate = OC[C@H]1O[C@H](O[C@H]2O[C@H](CO)[C@@H](O)[C@H](O)[C@H]2O)[C@H](O)[C@@H](O)[C@@H]1O; setting = pH 3.7, 30 °C; kcat/Km = 60 M⁻¹ s⁻¹
Substance = enzyme (Acinetobacter baumannii, UniProt A0A5P1UDB1); substrate = O=C(O)c1ccccc1O; setting = pH 7.5, 37 °C, apparent; kcat/Km = 319 M⁻¹ s⁻¹
Substance = B3 (CDA); substrate = Nc1nc(=O)n([C@@H]2O[C@H](CO)[C@@H](O)[C@H]2F)cc1-c1ccco1; setting = pH 7.4, 37 °C; kcat/Km = 50000 M⁻¹ s⁻¹
Substance = B4 (enzyme); substrate = C[C@H](CCC(=O)NCC(=O)O)[C@H]1CC[C@H]2[C@@H]3[C@H](O)C[C@@H]4C[C@H](O)CC[C@]4(C)[C@H]3C[C@H](O)[C@]12C; setting = pH 6.2, 37 °C; kcat/Km = 597000 ± 96700 M⁻¹ s⁻¹
Substance = enzyme (Bordetella petrii, UniProt A9I5G2); substrate = CSCC[C@@H](NC(C)=O)C(=O)O; setting = pH 7, 35 °C; kcat/Km = 272 ± 3.33 M⁻¹ s⁻¹
Substance = B5 (enzyme); substrate = O=C(O)C(=O)Cc1ccc(O)c(C(=O)O)c1; kcat/Km = 139000 M⁻¹ s⁻¹ and 106000 M⁻¹ s⁻¹ and 141000 M⁻¹ s⁻¹
Substance = spt R378K (Sphingomonas paucimobilis); substrate = CCCCCCCCCCCC(=O)SCCNC(=O)CCNC(=O)[C@H](O)C(C)(C)COP(=O)(O)OP(=O)(O)OC[C@H]1O[C@@H](n2cnc3c(N)ncnc32)[C@H](O)[C@@H]1OP(=O)(O)O; setting = with: PLP; kcat/Km = 625 M⁻¹ s⁻¹
Substance = B6 (enzyme C93G/Y157F); substrate = N[C@@H](CS)C(=O)O; setting = pH 7.5, 37 °C; kcat/Km = 25 M⁻¹ s⁻¹
Substance = nudC (Escherichia coli, UniProt P32664); substrate = Nc1ncnc2c1ncn2[C@@H]1O[C@H](COP(=O)(O)OP(=O)(O)OP(=O)(O)OP(=O)(O)OP(=O)(O)OC[C@H]2O[C@@H](n3cnc4c(N)ncnc43)[C@H](O)[C@@H]2O)[C@@H](O)[C@H]1O; setting = with: Mg2+; kcat/Km = 960 M⁻¹ s⁻¹
Substance = B7 (enzyme C458A); substrate = Nc1ncnc2c1ncn2[C@@H]1O[C@H](COP(=O)(O)OP(=O)(O)OP(=O)(O)O)[C@@H](O)[C@H]1O; setting = pH 8.5, 25 °C, apparent, anoxic, with: L-Thr 10 mM; kcat/Km = 2200 ± 600 M⁻¹ s⁻¹
Substance = B8 (PYCR2 R119C); substrate = NC(=O)C1=CN([C@@H]2O[C@H](COP(=O)(O)OP(=O)(O)OC[C@H]3O[C@@H](n4cnc5c(N)ncnc54)[C@H](OP(=O)(O)O)[C@@H]3O)[C@@H](O)[C@H]2O)C=CC1; setting = pH 7.5, 37 °C, apparent, cofactor varied, with: DL-P5C 5000 µM; kcat/Km = 2800 ± 500 M⁻¹ s⁻¹
Substance = enzyme (Plasmodium falciparum, UniProt C0H484); substrate = Nc1nc2c(ncn2[C@@H]2O[C@H](COP(=O)(O)OP(=O)(O)OP(=O)(O)O)[C@@H](O)[C@H]2O)c(=O)[nH]1; setting = with: Mn2+; kcat/Km = 21000 ± 2000 M⁻¹ s⁻¹
Substance = B9 (enzyme); substrate = NC(=O)C1=CN([C@@H]2O[C@H](COP(=O)(O)OP(=O)(O)OC[C@H]3O[C@@H](n4cnc5c(N)ncnc54)[C@H](O)[C@@H]3O)[C@@H](O)[C@H]2O)C=CC1; setting = pH 7, 30 °C, cofactor varied; kcat/Km = 3400 M⁻¹ s⁻¹
Substance = B10 (enzyme); substrate = O=C(O)[C@@H](O)[C@@H](O)[C@H](O)[C@H](O)CO; setting = pH 8.5, with: NAD; kcat/Km = 6670 M⁻¹ s⁻¹

A few entries again:
Substance = B9 (enzyme); substrate = NC(=O)C1=CN([C@@H]2O[C@H](COP(=O)(O)OP(=O)(O)OC[C@H]3O[C@@H](n4cnc5c(N)ncnc54)[C@H](O)[C@@H]3O)[C@@H](O)[C@H]2O)C=CC1; setting = pH 7, 30 °C, cofactor varied; kcat/Km = 3400 M⁻¹ s⁻¹
Substance = B10 (enzyme); substrate = O=C(O)[C@@H](O)[C@@H](O)[C@H](O)[C@H](O)CO; setting = pH 8.5, with: NAD; kcat/Km = 6670 M⁻¹ s⁻¹
